Results gathered from unrelated publications.
Lines come from different studies, so protocols differ. Several values in a cell are separate wells, animals, samples, runs or records. Numbers after ± are the reported error.
Genome polyprotein NS2B-NS3 protease: Genome polyprotein, NS2B-NS3 protease (ZIKV, UniProt A0A024B7W1)
SULT1E1: Sulfotransferase 1E1 (SULT1E1, Homo sapiens, UniProt P49888)
ALPL: Alkaline phosphatase, tissue-nonspecific isozyme (ALPL, Homo sapiens, UniProt P05186)
Proteasome component C5/PSMB5 chymotrypsin-like site: Proteasome component C5/PSMB5, chymotrypsin-like site (Homo sapiens, UniProt P20618+P28074)
Genome polyprotein protease: Genome polyprotein, protease (dengue virus type 2, UniProt P29990)

Compound	target	test	test system	conditions	IC50
CC(C)C[C@H](NC(=O)[C@H](C)N)C(=O)N[C@@H](C)C(=O)N[C@@H](Cc1c[nH]c2ccccc12)C(=O)N[C@@H](Cc1c[nH]c2ccccc12)C(=O)N[C@@H](C)C(=O)N[C@@H](C)C(=O)O	Transcriptional regulator ComR (Streptococcus mutans serotype c, UniProt Q8DWI6)		Streptococcus mutans		11 µM
CCOP(=O)(OCC)Oc1cc(C)nc(C(C)C)n1	rat liver carboxylesterase	enzyme activity, inhibitor	rat, postnatal day 1, liver homogenate	together with: p-nitrophenyl valerate	0.0002 µM
Cn1cc(-c2nc(OCC3CCNCC3)cnc2-c2ccc(CN)cc2)cn1	Genome polyprotein NS2B-NS3 protease	inhibitor	Zika virus		24.6 µM
CCN1C(=Cc2ccc3ccccc3[n+]2CC)C=Cc2ccccc21	Sodium-dependent noradrenaline transporter (Mus musculus, UniProt O55192)	binding	mouse hippocampal homogenate	120 min, together with: [3H]nisoxetine 5 nM	101 µM
O=C(O)c1ccc(OC(=O)c2ccc(O)cc2O)cc1O	DNA topoisomerase 1 (topA, Escherichia coli, UniProt P06612)	enzyme activity, inhibitor			> 1000 µM
Oc1ccc(-c2ccc(Cl)cc2)c(Cl)c1	SULT1E1	enzyme activity, inhibitor, radiometric		pH 7.4	0.018 µM
CC12CCC(OC(=O)NCCCn3ccnc3)CC1CCC1C2CCC2(C)C(c3ccc(=O)oc3)CCC12O (stereo not drawn)	Atp1a2, with beta-1 subunit (Rattus norvegicus, UniProt P06686)	pump current, inhibitor, two-electrode voltage clamp	Xenopus oocytes expressing β1	-60 mV	0.987 µM
Oc1ccc(-c2c[se]cc2-c2ccc(O)c(F)c2)cc1F	ESR2 (Homo sapiens, UniProt Q92731)	antagonist	HEK293T	together with: estradiol 10 nM	0.001 µM
CC(C)C[C@@H]1NC(=O)[C@H]([C@@H](C)O)NC(=O)[C@H](CCCCN)NC(=O)[C@@H]2CCCN2C(=O)[C@H](Cc2c[nH]c3ccccc23)NC(=O)[C@@H](NC(=O)[C@H](CCCCN)NC(=O)[C@H](Cc2ccc(O)cc2)NC(=O)[C@@H](N)Cc2c[nH]cn2)CSSC[C@@H](C(=O)N[C@@H](Cc2c[nH]c3ccccc23)C(=O)N[C@@H](CC(N)=O)C(=O)N[C@@H](Cc2c[nH]cn2)C(=O)O)NC(=O)[C@H](CCCCN)NC(=O)[C@H](Cc2ccccc2)NC1=O	ACVR2B (Homo sapiens, UniProt Q13705)	reporter gene, antagonist, item: Smad2/3	HEK293T	4 h, together with: activin A 0.33 ng/mL	> 100 µM
O=C(O[C@@H]1Cc2c(O)cc(O)cc2O[C@@H]1c1cc(O)c(O)c(O)c1)c1cc(O)c(O)c(O)c1	KDM4E (Homo sapiens, UniProt B2RXH2)	enzyme activity, inhibitor, fluorescence			3.2 µM
Oc1ccc(-c2cc(Cl)cc(Cl)c2)cc1Cl	Sult1a1 (Rattus norvegicus, UniProt P17988)	enzyme activity, inhibitor			40 µM
CN1C(=O)[C@]23SS[C@@]1(C)C(=O)N2[C@H]1Nc2ccccc2[C@@]1([C@@]12c4ccccc4N[C@@H]1N1C(=O)[C@@]4(C)SS[C@]1(C(=O)N4C)[C@H]2O)[C@@H]3O	CARM1 (Homo sapiens, UniProt Q86X55)	methyltransferase activity, inhibitor		together with: 1 µM [3H]SAM	> 10 µM
COc1ccc(C)cc1S(=O)(=O)Nc1cccnc1	ALPL	enzyme activity, inhibitor, absorbance			0.945 µM
CC[C@H](C)[C@H](NC(=O)[C@H](CO)NC(=O)[C@@H](NC(=O)[C@@H](NC(=O)[C@H](CCSC)NC(=O)[C@@H](N)Cc1ccccc1)[C@@H](C)CC)C(C)C)C(=O)N[C@@H](CO)C(=O)N[C@@H](CC(C)C)C(=O)N[C@H](C(=O)O)C(C)C	HLA class I histocompatibility antigen, A alpha chain, allele A*02:03 (Homo sapiens, UniProt P04439)	peptide binding, radiolabelled peptide competition		together with: radiolabelled standard peptide	0.001 µM
Oc1ccc(-c2ccc(Cl)cc2Cl)cc1Cl	SULT1E1	enzyme activity, inhibitor, radiometric		pH 7.4	0.0073 µM
COC(=O)[C@@H]1C(C=O)=Cc2cc3c(cc2[C@H]1c1cc(OC)c(OC)c(OC)c1)OCO3	tubulin alpha/beta (Leishmania infantum, UniProt A0A381MCS3+A4HTR0)	tubulin polymerization, inhibitor		37 °C	2.05 µM and 2 µM
CCO	Cys-loop ligand-gated ion channel (Dickeya chrysanthemi, UniProt P0C7B7)				52100 ± 1500 µM

Compound	target	test	test system	conditions	IC50
O=[N+]([O-])c1ccc(-n2cc(COc3ccnc4cc(Cl)ccc34)nn2)cc1	FP2A (Plasmodium falciparum, UniProt Q8I6U4)	enzyme activity, inhibitor, fluorescence		pH 5.5, with preincubation	25.6 µM and 16.2 µM
Cc1ccc(/C=C2\SC(=S)N(c3cccc(Cl)c3)C2=O)cc1[N+](=O)[O-]	srtA (Staphylococcus aureus, UniProt Q2FV99)	enzyme activity, inhibitor			> 1000 µM
O=C([O-])c1ccccc1-c1c2cc(Br)c(=O)cc-2oc2[c]([Hg+])c([O-])c(Br)cc12.[Na+].[Na+].[OH-]	Dual specificity protein phosphatase 5 (Homo sapiens, UniProt Q16690)	phosphatase activity		60 min, without DTT, together with: pNPP	4.1 ± 0.1 µM
CCCCN1c2ccccc2C=C(c2ccc3ccccc3n2)C1c1ccccc1 (stereo not drawn)	virF (Shigella flexneri, UniProt P0A2T1)	reporter gene expression, inhibitor	Escherichia coli, virB-lacZ reporter strain	3 h, 37 °C, 6.2% DMSO, together with: 1 mM IPTG	> 100 µM
Cc1c(P(=S)(c2ccccc2)c2ccccc2)n2ccccc2[n+]1CCCCc1ccccc1	NPSR1 (Homo sapiens, UniProt Q6W5P4)	calcium signal, antagonist			0.0011 µM
O=C(O)c1cc(-c2ccccc2Cl)n[nH]1	ALPL	enzyme activity, inhibitor, luminescence		together with: 300 µM CDP-star, 100 mM DEA	0.81 ± 0.032 µM
COc1ccc(C[C@H](NC(=O)[C@H](C)NC(=O)c2ccco2)C(=O)N[C@@H](CC(C)C)C(=O)C(=O)Nc2ccccc2)cc1	Proteasome component C5/PSMB5 chymotrypsin-like site	enzyme activity in cells, inhibitor			0.716 µM
CCCCCCCCCCCCCCCC(=O)N[C@@H](CCC(=O)NCCCC[C@H](NC(=O)[C@H](Cc1ccc(O)cc1)NC(=O)[C@H](CC(=O)O)NC(=O)[C@H](CO)NC(=O)[C@@H](NC(=O)[C@H](Cc1ccccc1)NC(=O)[C@@H](NC(=O)CNC(=O)[C@@H](N)CCC(=O)O)[C@@H](C)O)[C@@H](C)CC)C(=O)N[C@H](C(=O)N[C@@H](C)C(=O)N[C@@H](CC(C)C)C(=O)N[C@@H](CC(=O)O)C(=O)N[C@@H](CCCCN)C(=O)N[C@H](C(=O)N[C@@H](CCCNC(=N)N)C(=O)N[C@@H](CCC(N)=O)C(=O)N[C@@H](CCC(N)=O)C(=O)N[C@@H](CCC(=O)O)C(=O)N[C@@H](Cc1ccccc1)C(=O)N[C@H](C(=O)N[C@@H](CC(N)=O)C(=O)N[C@@H](Cc1c[nH]c2ccccc12)C(=O)N[C@@H](CC(C)C)C(=O)N[C@@H](CC(C)C)C(=O)N[C@@H](C)C(=O)N[C@@H](CCC(N)=O)C(=O)N[C@@H](CCCCN)C(N)=O)C(C)C)[C@@H](C)CC)[C@@H](C)CC)C(=O)O	Gastric inhibitory polypeptide receptor (Mus musculus, UniProt Q0P543)	cAMP response, antagonist, CRE-luciferase reporter	BHK	3 h, 37 °C, together with: 50 pM GIP	0.0351 µM
CC(C)=CCC/C(C)=C/CC/C(C)=C/CSCCS(=O)(=O)F	CES1 (Homo sapiens, UniProt P23141)	PMPMEase activity, inhibitor	SH-SY5Y	24 h, treated cells, lysate assayed, together with: RD-PNB substrate	15 µM
N#CC[C@H](C1CCCC1)n1cc(-c2ncnc3[nH]ccc23)cn1	SLCO1B3 (Homo sapiens, UniProt Q9NPD5)	transport, inhibitor		10 (unit not given), pre-incubation, together with: cholecystokinin	19.1 ± 2.9 µM
NCCCCOc1ccc(Cl)cc1C(=O)Nc1ccc([N+](=O)[O-])cc1Cl	Genome polyprotein protease	enzyme activity, inhibitor, FRET			34 µM
Fc1ccccc1-c1nc2cc3nc4ccccc4nc3cc2[nH]1	Genome polyprotein protease	enzyme activity, inhibitor, fluorescence		pH 8.5	169 µM
COC[C@H](NC(=O)OCc1ccccc1)C(=O)N[C@@H](Cc1ccccc1)C(=O)N[C@@H](CC(C)C)C(=O)C(=O)Nc1ccccc1	Proteasome component C5/PSMB5 chymotrypsin-like site	enzyme activity in cells, inhibitor			0.243 µM
O=C(O)c1ccccc1-c1c2ccc(=O)c([As]3SCCS3)c-2oc2c([As]3SCCS3)c(O)ccc12	PTPN1 (Homo sapiens, UniProt P18031, A122C/P87C)	enzyme activity, inhibitor	crude Escherichia coli lysate	120 min, 37 °C, together with: pNPP	2.2 µM
Cc1nc2ccc3cc(CNc4ccc5c(c4)CN(C(CCC(=O)O)C(=O)O)C5=O)ccc3c2c(=O)[nH]1 (stereo not drawn)	SHMT (Plasmodium falciparum, UniProt Q8I566)	enzyme activity, radiometric		20 min, 37 °C, together with: serine 0.2 mM, THF 1 mM	150 µM
NCc1ccc(-c2ncc(OCC3CCNCC3)nc2-c2ccc(C(=O)N3CCOCC3)cc2)cc1	Genome polyprotein NS2B-NS3 protease	inhibitor	Zika virus		> 10 µM

Repeated from above:
Compound	target	test	test system	conditions	IC50
O=[N+]([O-])c1ccc(-n2cc(COc3ccnc4cc(Cl)ccc34)nn2)cc1	FP2A (Plasmodium falciparum, UniProt Q8I6U4)	enzyme activity, inhibitor, fluorescence		pH 5.5, with preincubation	25.6 µM and 16.2 µM
CC(C)=CCC/C(C)=C/CC/C(C)=C/CSCCS(=O)(=O)F	CES1 (Homo sapiens, UniProt P23141)	PMPMEase activity, inhibitor	SH-SY5Y	24 h, treated cells, lysate assayed, together with: RD-PNB substrate	15 µM
